# Published values collected from several papers.
# Each numbered part is a random draw from the data of one study; scales do not carry over between parts.

# Sample 1 — technique: RNA Bind-n-Seq; molecule type: RNA; medium: in vitro; concentration: not given; setting: RNA with constant flanks, ends assumed; reference: input RNA pool; direction: higher = stronger binding
# Target: RING finger protein unkempt homolog, zinc fingers 1-6, GST-SBP tag (UNK, Homo sapiens, UniProt Q9C0B0, residues 30-357)
# Constant ends, left off below: GGGAGUUCUACAGUCCGACGAUC … CAACAGAGGAUUGAGCAUCA
# Target sequence (chain): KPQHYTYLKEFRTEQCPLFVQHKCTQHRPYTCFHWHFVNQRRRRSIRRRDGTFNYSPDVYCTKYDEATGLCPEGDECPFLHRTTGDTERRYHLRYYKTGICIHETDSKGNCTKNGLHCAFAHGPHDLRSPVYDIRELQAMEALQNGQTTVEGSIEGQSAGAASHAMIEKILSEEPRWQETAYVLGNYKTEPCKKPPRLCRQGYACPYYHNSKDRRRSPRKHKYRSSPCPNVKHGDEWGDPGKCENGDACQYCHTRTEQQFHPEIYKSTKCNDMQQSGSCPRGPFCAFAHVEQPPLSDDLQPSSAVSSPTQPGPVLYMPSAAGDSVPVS
Sequence,bound/input enrichment [ratio]
ACAUUUAUGUCGCCAGGCUUUCCAGUCAAUAACAGCAGCAGUGAUAAUGCUCAGAACUUCCGUUUUAAAACAAACUCUGGAUUUGCUGCUGCCUCUUCUGGAAGCCCUGCUGGUUUUGGG,0.0895
UGAACACAAUUCAUAAAGAUUUCUCUUUUAUACCUUCCUCACUGGCCCCCUCCACCUGCCCACCGUCACCAAAUUCUGUUUUAAAUCAAUGACCUAAGAUCAACAAUGAAGUAUUUUAUA,0.969
ACAGCUAGUGGCUGCUUGGUUGAAAGGAGGCAUUGACUUCAGCAACACAAUUAUGUUUUUAUCCGGAAUGUGCCAUACCGAAUCCGUGUGCGGCUGUCCAGAAAACGUAAUGAGGAUGAA,0.0688
GUGCCUGAGGUGAAAAAAGUUUGUAAGUUAUUGAAUUAUGGUGUUCAUUAGAACAGCUACCCGCUGAUUCCCCUAUUUUAACAAACUGACAAGAGCACAUCCAUAAAAUGAAAACCUGUU,0.304
AACGUGGAGUUGAGUUCCUUGGCCCGGCUUCCCAGCUUGAAUAAACUCCGGAAGUUGGAACUCCGUGACAAUAUAAUUUCUGGAGGCUUGGAAGUCCUGGCAGAGAAAUGUCCAAAUCUU,0.0638
CCUCAUAGACCUUAUUAGAUAAUGCUGUUUUCUGGGCUCCUUAACUUCCAAAAUAGCUACCCGUUUCCAUUUUUGGUUACAUUGUGAACUAUUUCCAUAUUCCUCUUAACAUGCUAUUUU,10
UGCCUCUCAUUCAAUCCCUACAGCGAAUUUAUUCUAGCCACCGGCUCUGCGGAUAAGACCGCCGCUUUAUGGGAUCUGCGUAACUUAAAAUUAAAACUCCAUACCUUCGAAUCUCAUAAA,0.346
CAUAUUGUAUGUAGAGAAAAAUUUUCAUUGACUCCCAUUGUGGAAUUCCCUAGCAAUUUAUUCCGACUUAAUUUUUUAAAUUCAAGCUUACUGUAUUAGUCAUUUUUAGCCCAUAAUUAA,187
AAGCUGGCUGUUCAGAUUGGCAAAGCAGGUCUGCUGAUGUCUGCCAUCACAGUUAUCAUCCCCGUGUUGUAUUUUGUGAUCGAUACCUUCUGGGUUCAGAAAAGACCAUGGCUUGCAGAG,0.118
CUUGACUUUCUACGAAUUAGUGACACAGAAAAGCUUCCAGAAUUUAAGAGCUUUGAAGAACCCGAAUUUCCUAAGCAUUCAAAAGUCAAACGGCAGAGCAGUACCGCAGAUGCUCCUGAG,0.446

# Sample 2 — technique: EMSA with sequencing; molecule type: double-stranded DNA, one strand shown; medium: in vitro; concentration: 10 and 20 nM; reference: negative control set to 0; direction: higher = stronger binding
# Target: Hepatocyte nuclear factor 3-alpha (Foxa1, Mus musculus, UniProt P35582, residues 1-468, full length assumed)
# Setting: whole designed probe, mean of two concentrations, ends assumed
# Construct (chain): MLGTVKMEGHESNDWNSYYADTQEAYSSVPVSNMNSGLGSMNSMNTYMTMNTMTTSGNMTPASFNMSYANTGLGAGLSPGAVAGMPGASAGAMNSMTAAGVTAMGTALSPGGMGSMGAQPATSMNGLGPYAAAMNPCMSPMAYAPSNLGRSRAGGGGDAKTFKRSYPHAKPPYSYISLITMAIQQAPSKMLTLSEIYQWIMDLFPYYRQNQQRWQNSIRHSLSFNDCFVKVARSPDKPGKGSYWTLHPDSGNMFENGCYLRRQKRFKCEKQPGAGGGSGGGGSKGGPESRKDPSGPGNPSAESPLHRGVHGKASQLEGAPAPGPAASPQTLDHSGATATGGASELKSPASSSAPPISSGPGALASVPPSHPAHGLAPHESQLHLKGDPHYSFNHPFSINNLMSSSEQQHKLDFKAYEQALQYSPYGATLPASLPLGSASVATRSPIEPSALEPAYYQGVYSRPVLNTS
Sequence,normalised bound fraction [ratio]
GTGAGCGGTGCCCATTGATGGGGAACATCTTCCCCCTCTTCCTTGCCCCACCAGCTCACCTTCCCGGGTTATTTGCAGATAGGAAAATAAATAAAGCCGGCATTCGTTAACCCTCTTCTGGCGCAAACTGCGTTGTTCCTTGGATGAATCATGGTCCTTTGGCGACGCCAGGCTCCGGGAGAGCAAAGCACCGTGTCAGGGCCATGATCCGGGGTGGCCTTTCACTGGGATCGTGGGGAC,0.329
GTGAGCGGTGCCCATTGATGGGGAACATCTTCCCCCTCTTCCTTGCCCCACCAGCTCACCTTCCCGGGTATATTGGAGATAGGAAAATAAATAAAGCCGGCATTCGTTAACCCTCTTCTGGCGCAAACTGCCAGAGCAAACAGATGAATCATGGTCCTTTGGCGACGCCAGGCTCCGGGAGAGCAAAGCACCGTGTCAGGGCCATGATCCGGGGTGGCCTTTCACTGGGATCGTGGGGAC,0.368
GTGAGCGGTGCCCATTGATGGGGAACGATGTTTTTGTTGTTGTTAATCTGGAGCTAAGGATGGTTGCATTGTGTTTGCATTCTAGATAACAAAGCTGGCAGTCGCAGTGAAGGAGGGTCATGTTTGCACAGCAGTGATTCAGAGCTCTGCCAGGACAGCTGCCAGTGCAGTTTATCTCCCAGTCCGATCAGGCCTTGGCGCAGGGAGGGAAGGTGGCCCTTTCACTGGGATCGTGGGGAC,0.38

# Sample 3 — technique: universal PBM; molecule type: double-stranded DNA, one strand shown; medium: in vitro; concentration: 600 nM; direction: higher = stronger binding
# Target: Sal-like protein 4, full length isoform A (SALL4, Homo sapiens, UniProt Q9UJQ4, residues 1-1053)
# Chain of UniProt Q9UJQ4 (whole entry, looked up): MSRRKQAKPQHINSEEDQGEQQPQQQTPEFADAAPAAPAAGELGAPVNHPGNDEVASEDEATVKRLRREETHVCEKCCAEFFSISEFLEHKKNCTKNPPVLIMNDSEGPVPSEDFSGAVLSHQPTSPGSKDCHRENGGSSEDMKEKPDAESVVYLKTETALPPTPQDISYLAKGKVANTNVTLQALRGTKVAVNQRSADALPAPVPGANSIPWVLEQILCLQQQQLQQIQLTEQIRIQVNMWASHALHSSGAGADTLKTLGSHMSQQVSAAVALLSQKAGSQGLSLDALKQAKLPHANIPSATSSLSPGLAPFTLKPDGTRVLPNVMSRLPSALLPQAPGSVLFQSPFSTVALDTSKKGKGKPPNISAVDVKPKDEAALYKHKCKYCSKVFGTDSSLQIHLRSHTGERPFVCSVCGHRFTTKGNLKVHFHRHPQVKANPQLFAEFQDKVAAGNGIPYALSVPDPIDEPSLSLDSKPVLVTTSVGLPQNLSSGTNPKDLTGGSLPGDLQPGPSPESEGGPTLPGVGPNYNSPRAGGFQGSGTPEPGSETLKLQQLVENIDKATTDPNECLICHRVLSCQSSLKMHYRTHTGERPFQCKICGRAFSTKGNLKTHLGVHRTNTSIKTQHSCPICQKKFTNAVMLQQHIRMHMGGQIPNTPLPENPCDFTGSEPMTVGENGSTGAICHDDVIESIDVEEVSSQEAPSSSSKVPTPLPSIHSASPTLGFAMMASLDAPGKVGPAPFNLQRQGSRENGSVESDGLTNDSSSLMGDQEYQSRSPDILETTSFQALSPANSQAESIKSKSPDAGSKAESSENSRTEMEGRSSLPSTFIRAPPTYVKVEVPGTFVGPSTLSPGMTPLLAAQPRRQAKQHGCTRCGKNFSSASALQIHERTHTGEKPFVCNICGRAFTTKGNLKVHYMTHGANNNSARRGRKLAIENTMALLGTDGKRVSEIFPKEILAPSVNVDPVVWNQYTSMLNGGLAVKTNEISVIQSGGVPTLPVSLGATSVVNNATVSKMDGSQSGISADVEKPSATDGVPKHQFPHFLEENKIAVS
# Setting: 8-mer, flanks averaged, mean of replicates
Sequence,E-score
CTATCCCA,-0.109
CCGGATAC,-0.263
GCTTATGA,0.239
CAGCTAAA,0.0981
CTTGAGGC,-0.259
CGTCAGAG,-0.0719
GGGAACCC,-0.321
CATCAAAG,0.00799
CCCGGGCA,-0.309
CCACACGA,-0.185
GCACCGTA,-0.201
CACATTCA,0.131
GCGAAGGA,-0.12
CATTTGGA,0.111
CTCAACGA,-0.0512
CCCGTGAC,-0.211
AGAATTGC,0.143
CAAAAACA,0.148

# Sample 4 — technique: RNA Bind-n-Seq; molecule type: RNA; medium: in vitro; concentration: 365 nM; reference: no-protein control; direction: higher = stronger binding
# Target: RNA binding protein fox-1 homolog 2, RRM domain, GST-SBP tag (RBFOX2, Homo sapiens, UniProt O43251-10, residues 100-194)
# Setting: natural RNA segment, single round, ends assumed
# Constant ends, left off below: GGGAGUUCUACAGUCCGACGAUC … UGGAAUUCUCGGGUGCCAA
# Construct (chain): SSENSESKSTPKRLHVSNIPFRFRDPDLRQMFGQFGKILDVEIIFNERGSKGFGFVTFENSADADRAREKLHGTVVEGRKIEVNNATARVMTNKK
Sequence,RBNS enrichment (R)
GGAGGAUGUGCUGAAGAUGGUCUGGUCCUAACUGCCAGACACAAUGUCCGUGACAUUAAAGGCUCCACAUGAUUGACCACAGCAUGGGAGAGCGGUGUUCUUCACUCGAC,1.57
UAUAGUUAUGAAACUAUCAAUCAAGGUGUUAUAUUUCAGUCAGAAGUGAAAAUUUAUGAAGAGUAUUUGGAAGUGUGUACAGAAAUAAACUAGACUUACAGGUAGGCUAG,0.574
UAGUGAGUAGGAGAUUCUGCCUUGUUCUGAUGAGCCUGUGCAGGGGCUCCAGGGGAGCAUGCUGUCCAGGGGGCACAGAAGGGUGGUGAGUGUGAUCAAAUCUAGUCUCA,1.15
AAUUCAUGAGAGACUAAAUGUGAGGGAGAGGUGGAUUUAAAGAGGCCAGACCUUAACCAAAGAUGCUGAGAUACAGCAUUCUGUCCCCCCUGCCCUAGAAACUCCAUAAA,0.4
AAAAAUCAAUUAAAUCAUUGUGUUCAACAGGAAUAUUUAAAAUAUUCUGCAUGAAUCCUGUGGCUGUCUUAUUUUAAAUAGCUGCUGCUGUGGGAUUAUAUUUUUUUUCC,10.3
CUUAUUUAAGUGUUAGACUUCCAUUCUGGCAAAAUCUUGCCUUAUCAGAAGACAUUGGAAAGAGGGAUUCCCUUUGGUGUUUGGUCUUCUACUUAGAAAAACCUAUUGCA,1.79
AAGCCUCUGGGUAGAAUCUGAUGUGGCCUGAAGAAACCCUGAAGGUCACUGUCACUGUGGCGGGACAGAGUGCUUCGGUAUAAGCCCGCAGGCUUCUGGUUCUUGGUUCU,0.27
CUUAUCUCGCUCUGGUGUUCACAGGCGGCAUGUGUUCCAGCCGACGAUCGCAUCUUGUGUCGCUGAGGCGGCGCACUGAGGGACCAGAUGGACUCCAGCCCUUCAGGAGG,1.03
CAUGCUUAAAGAAGUAAGAAAUCUUUUGUGGAUAUGUAAUUAUACAUAUAAAGUAUAUAUAUAUGUAUGAUACAUGAAAUAUAUUUAGAAAUGUUCAUAAUUUUAAUGGA,0.672
AAACGCAAACAAAAUUCUGGUGAAAUAACUGGGCUGUUGAUGCAGGUCAGGUGGAAGCUGAGAAAUAAAUGUAUAUAAAUAUGUAGCUGAGGAUAUUAAUUCCCAUUAUA,0.334
AGCUGUUGCCAGUGUCCUUCUGAGCCUGGAUUCUCCGGGGAUUUCCGUCGUGGUGGAUGGACUUCACAUCAGCAGCAGUUCUGGUACAGAAUUGUAAUGUGUUUUCAUUU,0.362
GACUUUUUUUAUCUUUAUUUUUAUUUUGGAGAUUGGAUUUUUCUAUGUAGCUAUGGCUGUCCUUGAAUUCUCUCUGUAAACCAGGCUGCCCUUGAACUUGUGAUCCUUCU,0.543

# Sample 5 — technique: protein-binding microarray; molecule type: hairpin DNA; medium: in vitro; concentration: not given; reference: not given; direction: higher = stronger binding
# Target: Homeobox protein Hox-C11, full length (HOXC11, Homo sapiens, UniProt O43248, residues 1-304)
# Chain of UniProt O43248 (whole entry, looked up): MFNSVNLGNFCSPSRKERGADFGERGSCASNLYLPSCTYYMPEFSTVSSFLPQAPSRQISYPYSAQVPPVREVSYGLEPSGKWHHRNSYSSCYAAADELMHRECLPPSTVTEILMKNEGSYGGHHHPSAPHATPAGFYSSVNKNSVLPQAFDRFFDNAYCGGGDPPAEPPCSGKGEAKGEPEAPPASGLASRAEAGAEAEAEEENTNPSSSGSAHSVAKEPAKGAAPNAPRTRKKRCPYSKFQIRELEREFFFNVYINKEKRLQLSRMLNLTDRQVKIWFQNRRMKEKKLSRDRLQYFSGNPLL
# Setting: whole hairpin DNA, median over replicate spots
Sequence,median fluorescence [a.u.]
GAGGCCAGGTCATTAAAGCCTCCTGGCTTTAATGACCTGGCCTCACACTC,9880
GAGGCCACGTCGTTAAAGCCTCCTGGCTTTAACGACGTGGCCTCACACTC (5mC at 36),9020
GAGGCCAGGCGGTAAAAGCCTCCTGGCTTTTACCGCCTGGCCTCACACTC (5mC at 10 34),9300
GAGGCCAGGTCGCTAAAGCCTCCTGGCTTTAGCGACCTGGCCTCACACTC,10200
GAGGCCAGGGCGTAAAAGCCTCCTGGCTTTTACGCCCTGGCCTCACACTC (5mC at 35),10000
GAGGCCAGCTCGTAAAAGCCTCCTGGCTTTTACGAGCTGGCCTCACACTC,9520
GAGGCCAGGCGGTTAAAGCCTCCTGGCTTTAACCGCCTGGCCTCACACTC,10200
GAGGCCAGGTCGGAAAAGCCTCCTGGCTTTTCCGACCTGGCCTCACACTC (5mC at 32),9940
GAGGCCAGGTCGTTCAAGCCTCCTGGCTTGAACGACCTGGCCTCACACTC,10400
GAGGCCGGGTCGTAAAAGCCTCCTGGCTTTTACGACCCGGCCTCACACTC,11500
GAGGCCAGGTCGTAAGAGCCTCCTGGCTCTTACGACCTGGCCTCACACTC,10300
GAGGCCAGGTCGTTCGAGCCTCCTGGCTCGAACGACCTGGCCTCACACTC (5mC at 15 29),10100
GAGGCCATGTCGTAAAAGCCTCCTGGCTTTTACGACATGGCCTCACACTC,9290
GAGGCCGGGTCGTTAAAGCCTCCTGGCTTTAACGACCCGGCCTCACACTC (5mC at 38),11300

# Some of these lines once more (sample 5):
Sequence,median fluorescence [a.u.]
GAGGCCAGGTCATTAAAGCCTCCTGGCTTTAATGACCTGGCCTCACACTC,9880
GAGGCCAGGCGGTTAAAGCCTCCTGGCTTTAACCGCCTGGCCTCACACTC,10200
GAGGCCAGGCGGTAAAAGCCTCCTGGCTTTTACCGCCTGGCCTCACACTC (5mC at 10 34),9300
GAGGCCACGTCGTTAAAGCCTCCTGGCTTTAACGACGTGGCCTCACACTC (5mC at 36),9020
